Measurements pooled from the literature.
Parts stem from different laboratories: compare values within a part only. Changes are numbered by the printed parent chain.

Sample 1
Target: Interferon regulatory factor 3, full length, phosphomimetic (IRF3, Homo sapiens, UniProt Q14653, residues 1-427, S386D/S396D/S398D/S402D/T404D/S405D)
Technique: protein-binding microarray
Molecule type: double-stranded DNA, one strand shown
Sample: in vitro
Tested at: 2540 nM top
Notes: 60-bp whole probe
With: salmon DNA 0.4 mg/ml
Reference: random background probes
Reading: higher = stronger binding
All sequences stand within: GCCTAGCAC … GTCTTGATTCGCTTGACGCTGCTG
Residues (chain): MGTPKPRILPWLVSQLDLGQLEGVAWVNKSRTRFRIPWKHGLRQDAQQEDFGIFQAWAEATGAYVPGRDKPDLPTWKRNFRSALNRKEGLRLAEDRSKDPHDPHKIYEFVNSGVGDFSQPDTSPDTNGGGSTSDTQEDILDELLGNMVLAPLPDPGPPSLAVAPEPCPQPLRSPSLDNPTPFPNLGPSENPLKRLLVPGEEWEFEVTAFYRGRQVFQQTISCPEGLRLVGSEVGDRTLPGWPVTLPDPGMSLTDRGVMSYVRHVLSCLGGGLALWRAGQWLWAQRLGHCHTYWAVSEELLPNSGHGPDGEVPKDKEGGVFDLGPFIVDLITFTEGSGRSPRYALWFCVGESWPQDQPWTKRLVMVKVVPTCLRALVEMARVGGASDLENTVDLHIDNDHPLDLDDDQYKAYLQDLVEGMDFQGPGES
Strand	fitted relative affinity [z-score]
GACGGTATCCTACTGCTGGCGTGCTAG	2.73
GACGATCTCAGACTGGACACGTGCTAG	0.312
TTAGATTTCAGTATCGAATAGTGCTAG	2.4
TCACATTTTCGTTTTGTACTGTGCTAG	3.76
TTAGGTTTCGGGCTGGGTTAGTGCTAG	2.48
AACGGACTGGACTTTCGGGACGTGCTA	0.0614
TCACCTATAGGTTTCTAACTGTGCTAG	0.969
GACGGACTAGACTATCGGGACGTGCTA	-0.183
GGCGGTATCGGTTTCGGGACGTGCTAG	6.75
TTAGGTATCTGTTTCGGTTAGTGCTAG	5.91
GACGGTCTCGGTATCAGGACGTGCTAG	1.72
TTAGGTTTCGACGATCGGTTAGTGCTA	1.26
TGAAGACTTTCTTTCAAATGGTGCTAG	0.497
CTTCCCCTCTAGGTTCTCTGAGTGCTA	1.33
GACGGTATCGCGTTTCGGGACGTGCTA	1.65
GACGGTATCCTTTTCTTGACGTGCTAG	7.5
TTAGAACTGGGGTTTCGGTTAGTGCTA	2.7
TCAAATTTTCATTTTCCACTGTGCTAG	2.72
GACTATCTCAGTTTCGAGACGTGCTAG	2.72
TCACCTCTAGGTCTTCTACTGTGCTAG	0.0309
TCAAATGATTGGTTGAAACTGTGCTAG	-0.247
TTGGGTCTCCTTCTCCTTTAGTGCTAG	3.04
GACGGTTTCGACTGTCGGGACGTGCTA	2.53

Sample 2
Target: ABI1, truncated, D143A, DHFR fusion (Arabidopsis thaliana)
Technique: DHFR PCA, deep sequencing
Sample: yeast
Notes: methotrexate growth selection, single substitutions
With: (+)-ABA 17 µM
Reference: wild-type fitted maximum
Reading: higher = stronger binding
Starting sequence: PYL1, truncated, DHFR fusion (Arabidopsis thaliana); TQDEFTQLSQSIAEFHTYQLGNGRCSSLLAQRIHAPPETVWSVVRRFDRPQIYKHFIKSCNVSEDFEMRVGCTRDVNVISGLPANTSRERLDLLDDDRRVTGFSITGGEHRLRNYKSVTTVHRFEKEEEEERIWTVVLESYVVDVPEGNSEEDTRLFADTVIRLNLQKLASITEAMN
Substitution	relative binding score [%]
E131L	86.6
N77C	89
V145L	55.2
E131H	86.8
T119Q	74.8
T120M	0.851
E67M	72.5
N61R	88.4
R24N	65.7
L91H	-19.9
R74V	-8.72

Sample 3
Target: Histone acetyltransferase KAT6A, winged helix 1, GST fusion (KAT6A, Homo sapiens, UniProt Q92794, residues 1-85)
Technique: protein binding microarray
Molecule type: double-stranded DNA, one strand shown
Sample: in vitro
Tested at: not given
Notes: 8-mer, flanks averaged, mean of 2 arrays, mostly near background
Reference: not given
Reading: higher = stronger binding
Construct (chain): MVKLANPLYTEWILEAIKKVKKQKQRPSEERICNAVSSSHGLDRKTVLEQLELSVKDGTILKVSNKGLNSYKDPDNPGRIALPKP
Strand	E-score
CAGAGTTC	-0.191
AGAATTGC	0.0137
CTCACCAA	-0.0762
CGGGTACC	0.305
GAGAACCA	-0.191
AGATAGAA	-0.168
GGCGCAAA	0.256
ATACACAC	-0.118
CCTGGCCC	-0.0584
TAAGACCA	-0.132
CAATATCA	-0.0325
CGGAAGCA	0.0872
AGCGGACT	0.113
AAACAATA	-0.0553
GTCAGCAA	-0.0907
CTGTTCGC	-0.00331
TGCAAGAA	-0.0807
CACTTTGG	-0.0862
ACGGAGAC	0.186
TATTCGAA	-0.145

Sample 4
Target: CCNE2, cyclin fold, Cln2 fusion (human)
Technique: yeast growth competition, sequencing
Sample: yeast
Notes: strong parent motif
Reference: not given
Reading: higher = stronger binding
Starting sequence: BRCA2 docking peptide (human); PSIKRNLLNEFDR; partner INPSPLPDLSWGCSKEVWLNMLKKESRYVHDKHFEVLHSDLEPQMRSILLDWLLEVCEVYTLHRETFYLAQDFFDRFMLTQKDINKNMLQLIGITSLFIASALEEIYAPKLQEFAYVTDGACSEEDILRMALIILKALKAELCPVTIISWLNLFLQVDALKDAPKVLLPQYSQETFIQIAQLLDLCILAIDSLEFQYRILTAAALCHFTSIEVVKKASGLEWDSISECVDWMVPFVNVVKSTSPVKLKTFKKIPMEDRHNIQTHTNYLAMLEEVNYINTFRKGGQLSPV
Substitution	normalised enrichment score
F11Q	0.316
E10A	0.636
I3P	0.664
K4S	0.296
R13T	1.47
P1Y	3.12
L8W	0.213
L7I	0.739
S2V	0.731
R13F	1.16
P1N	2.48
N9C	1.36
R13Y	1.07
E10M	0.832
E10T	-0.345
R13V	1.26
N6C	0.0913
L7P	0.0681

Sample 5
Target: RNA binding protein fox-1 homolog 2, RRM domain, GST-SBP tag (RBFOX2, Homo sapiens, UniProt O43251-10, residues 100-194)
Technique: RNA Bind-n-Seq
Molecule type: RNA
Sample: in vitro
Tested at: 365 nM
Notes: natural RNA segment, single round, ends assumed
Reference: no-protein control
Reading: higher = stronger binding
All sequences stand within: GGGAGUUCUACAGUCCGACGAUC … UGGAAUUCUCGGGUGCCAA
Construct (chain): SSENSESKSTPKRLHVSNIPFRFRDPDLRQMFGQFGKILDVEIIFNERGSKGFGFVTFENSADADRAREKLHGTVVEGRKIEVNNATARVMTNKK
Strand	RBNS enrichment (R)
UUGUGACUCUGUUGCUAACGGUUACCACUUCCGAUCGCCCUGUACAUACAUAUGCCGUAAGGCGCAAUCACUGUUUCAGACUUAAAAUUAUUAGUGUGUUUGUUUGGUCC	0.571
AGAAGUACAUGAGGGGCGCAGAGAUGAGCACACAGCUUUGGGCACGGUCCAGGGCAAACUGAAAUGUACGCCUGAAUUUUGUAAACAGAAGUAUUAAAUGUCUCUUUCUA	0.308
AAUCUUCAAAGGUACUUAUUUCCAAAUAUGGAGGGAAUGAAUCUGAAGAGGGAACAAUGGCGUUUUUCGAACUUAUUUCUCUCUAAUCCAGCCUGGAGGAUUUUUAGCCG	0.316
ACCAGCAGGUCCUGCAGCUUACCAAGCCCAGGGUGUGUGGGGCCCUCACGCAGUUCGACUGGGAAAAUACAGAAGGGCUGCAGAGGCAAUAAGAAGGAAGAAAGGGAAGU	0.379
UCACUGACUGGGUCUCUUCAGCUGUCAUCAGGCUUCCACCAGAAGAACAAACAACAACAAAAAAAGCCAAUGAAGCCAUGUGCUGUCCUUAGGCAGACGUACUUGUCUCC	0.46
CGGGCUUUUGUAUAUUACCUGCUGAUCUUGUACACUUAAUCUGUUUACUGUUGUUCACAGAUGAAAACAGAUACGCUAGGGCUAGUUUUGAAAAACACUAAUUCUCUUCA	0.464
UACAGCUGGCUGUCUACUACUCAGAGGGCUUCAAAGGUGUGGGGUGGCCCUGCCAGCAGGCGGAGGAUGAGGCCCUCCUUCUCUGAGGACGGGUCUGCUGGAGAGAGAAG	1.15
AGAUGUUCCGUGGUGUUUGGUUUCCCUUUCUUCUCUCUCCUGCUCACUCUGCAUUAUAGCAGCAGCUUAUUUCUCUAAGGCUGGACAGCCUGGCUCUCGGCAGUGACGUC	0.613
GGUUGGUGAUCCAUUGGGUGGAUCAGGACGGAACUCUGUGUCCCCAGGUCUCAGGAGUGCCAUCCCCGGGCUCAGCUCCAGUUCCCUGGGCUCAUGCUACUAGUGCUCUG	0.581
AUCACUGGAGCACCAGGCACGAACCCACCUGCUGAGAGACCCAAGGAGGAAAAACAGACAAAAACAGCCUCACAGAAGAAUAUGACAGCUGUCCCUGUCACCAAGCUCAC	0.434
UCCUGUCUUAGCCGCAGUCUCCAGAACCCAUGAUGAACUGUGAUCUGCCGUGGUCCUGCCGUGGUCCUGCCGUGGAGCCUGUCCCUACACAUGACCUUGGAGCCUCUUGG	0.366
GGAAGCUGCACAUCUGCCCACUGAGCUUUGGUGAAAGGUCCAGAGGCUUUGGGGACCUCUGUUCCUGGGCCACCCUGCCCGUGGGCACCCUCUACCUUGGGGCACGUUCU	1

Sample 6
Target: CEP164, C-terminal peptide (human)
Technique: DHFR complementation, deep sequencing
Sample: yeast
Notes: single substitutions, model-inferred values
Reference: wild type
Reading: higher = weaker binding
Starting sequence: PDZK1, PDZ domain 2 (human); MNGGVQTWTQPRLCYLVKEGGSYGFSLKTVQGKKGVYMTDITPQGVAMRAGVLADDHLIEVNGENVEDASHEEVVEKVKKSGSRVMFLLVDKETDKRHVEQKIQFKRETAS; partner HNRVKVYRF
Substitution	binding free energy change [kcal/mol]
Y37V	0.345
N62E	1.32
K102P	-0.00129
F25C	1.35
V90N	-0.0669
E64I	0.0244
R84T	-0.0461
E67T	-0.0856
D91V	0.585
C14V	-0.395
L16C	0.753
F25N	1.61
V78S	1.84

Other studies, line by line
Substance	target	test	system	conditions	scale	endpoint	value
PhoQ, residues 284 288 289 292 302 303 AQGLTV	PhoP, residues 12 14 15 18 19 TPWLV (Escherichia coli, UniProt P23836)	Sort-seq, item: YFP reporter	E. coli	PhoQ-PhoP variant library, with: 10 µM Mg2+	reference: high Mg2+ state, higher = stronger signaling	fold induction	0.61

A few entries again (sample 2):
Substitution	relative binding score [%]
E131L	86.6
N77C	89
V145L	55.2
E131H	86.8
T119Q	74.8
T120M	0.851
E67M	72.5
N61R	88.4
R24N	65.7
L91H	-19.9
R74V	-8.72
